# Experimental data of several laboratories.
# Parts stem from different laboratories: compare values within a part only.

# Series 1
# Target: RNA binding protein fox-1 homolog 2, RRM domain, GST-SBP tag (RBFOX2, Homo sapiens, UniProt O43251-10, residues 100-194)
# Technique: RNA Bind-n-Seq
# Form: RNA
# Matrix: in vitro
# Tested at: 365 nM
# Setting: natural RNA segment, single round, ends assumed
# Reference: no-protein control
# Reading: higher = stronger binding
# All sequences stand within: GGGAGUUCUACAGUCCGACGAUC … UGGAAUUCUCGGGUGCCAA
Strand,RBNS enrichment (R)
AGUAUGUAAAUAAUUGACAUUGGUGUUAACACGACUGUCGGGGAUUCACUGAAAUCCACAUGAUUCAGUUCUAGCUCUGGAUUACCUCAGUUGACCUUUGUGGAGGUUUU,0.538
CCCUAAAGACAAUUCCUGAACCUGCCCCCAGCCUCUUUGGCUGCCAUUUAUGUCGUGUGUGAGUGAGUGAUACGCAGAGUUCUUUACUGCUGUCUGUGGUGUGUGUGCCU,0.964
CUGGGCCAAAAAAUUUCAGUAGGUCAGUAAUUUAAACUUCACAUCUGGAAAAAAAAUUAUUAAUAAUGUGAAACAAACCAACUUAAAAAGUGAUUCUUGCACAUGAAUUG,0.726
UCCUUGAGUUUUCCUGCUGCGAUGCAAUGCUUUUCUAAUCUGCAGUGGCUCUUACAAAACUCUGUUCCCACUCCCUCUCUUGCCGACAAGGGCAACUCACGGGUGCAUGA,4.41
CUUGCUUUGCAUUUGAUAGUGUCAAAUAAUUGCUUGUACCCUAGGUAAUGACCAGUGGAUUUUUGUUUGGCUUUAUUAAUCUCAUCACAGUGUAUUCUGAUGUCUUAAGU,4.3
UUAAUAUUUUACUCAGCCAGAGUCUCAUUCAUUUGCUAAGCAUUGGGAACAUUAUGUAUAUUGACCUUAAACAUAGGUGUCCUAUAUUUGGAUUGUGACUUGUAGACUCA,0.454
UCACAAGUUCCAGGUCAGCCUGUGCUGUGUAGCACAGUCCAGCUCCCUACACCUCCUCACACACACAGUGGCUGCUGGGUGACCGUUCCCUUUUUUCUUUGGAACUUGGC,0.455
GAAGUGACAGUCAUGUUCAAAGGAAGCAUUUCUAGAAAAAAGGAGAUAAUGUUUUUAAAUUUCAUUAUCAAACUUGGGCAAUUCUGUUUGUGUAACUCCCCGACUAGUGG,0.531

# Series 2
# Target: Histone acetyltransferase KAT6A, winged helix 2, GST fusion (KAT6A, Homo sapiens, UniProt Q92794, residues 85-181)
# Technique: protein binding microarray
# Form: double-stranded DNA, one strand shown
# Matrix: in vitro
# Tested at: not given
# Setting: 8-mer, flanks averaged, mean of 2 arrays, mostly near background
# Reference: not given
# Reading: higher = stronger binding
# Construct (chain): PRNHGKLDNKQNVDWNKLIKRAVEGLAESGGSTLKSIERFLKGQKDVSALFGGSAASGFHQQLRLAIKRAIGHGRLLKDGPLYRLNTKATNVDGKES
Strand,E-score
GCGAGAAC,0.107
TCTGTGAA,0.0471
GATCTCTA,-0.0528
ACGGGGAG,-0.0236
CTCGTTCA,0.0253
ACAAGGGC,-0.0479
CGTGTCAA,-0.00688
GCGTTAGA,0.0347
AAAAACCG,-0.0912
CGCAGCTA,0.193
GGAGCCCA,-0.158

# Series 3
# Target: Prothrombin, mature alpha-thrombin (F2, Homo sapiens, UniProt P00734)
# Technique: aptamer microarray, sandwich
# Form: DNA with 2'F-ANA
# Matrix: in vitro
# Tested at: 200 nM
# Setting: whole 15-mer aptamer, many near background
# Together with: Cy3 exosite-II aptamer, 400 nM
# Reading: higher = stronger binding
# Strand: GGTTGGTGTGGTTGG
Modification,mean fluorescence intensity
2'F-ANA at 1 3 4 5 7 8 9 10 11 14,50.5 a.u.
2'F-ANA at 1 2 3 4 5 6 7 10 12 15,53.5 a.u.
2'F-ANA at 2 4 11 12 14 15,132 a.u.
2'F-ANA at 1 2 3 4 7 9 10 11 13 15,55.7 a.u.
2'F-ANA at 1 4 6 7 8 9 11 12 13 15,157 a.u.
2'F-ANA at 7 10 12,272 a.u.
2'F-ANA at 1 2 4 6 9,112 a.u.
2'F-ANA at 1 6 8 10 12 13 15,202 a.u.
2'F-ANA at 1 3 5 7 9 11 13 15,53.3 a.u.
2'F-ANA at 2 5 6 13 14 15,46.9 a.u.

# Single results of other studies
Substance,target,test,system,conditions,how to read,measurement,result
"PhoQ, residues 284 288 289 292 302 303 SIHLQL","PhoP, residues 12 14 15 18 19 VQALL (Escherichia coli, UniProt P23836)","Sort-seq, measured: YFP reporter",E. coli,"PhoQ-PhoP variant library, together with: 10 µM Mg2+","reference: high Mg2+ state, higher = stronger signaling",fold induction,6.83

# Some of these lines once more (series 3):
Modification,mean fluorescence intensity
2'F-ANA at 7 10 12,272 a.u.
2'F-ANA at 1 2 4 6 9,112 a.u.
2'F-ANA at 1 6 8 10 12 13 15,202 a.u.
